Results from different studies.
A part holds a random share of what one study measured.
Sequence of UniProt O95747 (whole entry, looked up): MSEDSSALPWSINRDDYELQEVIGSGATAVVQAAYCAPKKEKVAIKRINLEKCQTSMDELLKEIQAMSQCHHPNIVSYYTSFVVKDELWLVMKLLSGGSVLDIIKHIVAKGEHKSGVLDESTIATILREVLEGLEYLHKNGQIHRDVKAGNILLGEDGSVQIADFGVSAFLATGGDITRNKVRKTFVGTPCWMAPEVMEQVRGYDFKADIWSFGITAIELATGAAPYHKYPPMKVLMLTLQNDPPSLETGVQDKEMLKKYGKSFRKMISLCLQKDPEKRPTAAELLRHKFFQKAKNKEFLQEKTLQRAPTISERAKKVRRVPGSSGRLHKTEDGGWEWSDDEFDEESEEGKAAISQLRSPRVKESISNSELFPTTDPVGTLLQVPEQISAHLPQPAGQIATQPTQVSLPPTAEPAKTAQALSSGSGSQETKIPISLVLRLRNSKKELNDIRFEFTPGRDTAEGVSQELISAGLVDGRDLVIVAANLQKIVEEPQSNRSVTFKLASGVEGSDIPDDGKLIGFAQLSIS
Sequence of UniProt Q9Y5Y4 (whole entry, looked up): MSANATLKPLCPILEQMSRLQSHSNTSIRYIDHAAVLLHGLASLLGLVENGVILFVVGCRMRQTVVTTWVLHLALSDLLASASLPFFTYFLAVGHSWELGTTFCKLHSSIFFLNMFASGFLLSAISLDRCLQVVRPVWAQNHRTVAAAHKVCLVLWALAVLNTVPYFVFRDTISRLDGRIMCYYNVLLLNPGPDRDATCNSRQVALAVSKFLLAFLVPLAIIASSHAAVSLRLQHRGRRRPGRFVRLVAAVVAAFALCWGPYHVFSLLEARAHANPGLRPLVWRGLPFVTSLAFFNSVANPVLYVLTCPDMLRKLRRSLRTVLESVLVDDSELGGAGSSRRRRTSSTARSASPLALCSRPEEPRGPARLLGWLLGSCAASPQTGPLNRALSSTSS
Sequence of UniProt P16473 (whole entry, looked up): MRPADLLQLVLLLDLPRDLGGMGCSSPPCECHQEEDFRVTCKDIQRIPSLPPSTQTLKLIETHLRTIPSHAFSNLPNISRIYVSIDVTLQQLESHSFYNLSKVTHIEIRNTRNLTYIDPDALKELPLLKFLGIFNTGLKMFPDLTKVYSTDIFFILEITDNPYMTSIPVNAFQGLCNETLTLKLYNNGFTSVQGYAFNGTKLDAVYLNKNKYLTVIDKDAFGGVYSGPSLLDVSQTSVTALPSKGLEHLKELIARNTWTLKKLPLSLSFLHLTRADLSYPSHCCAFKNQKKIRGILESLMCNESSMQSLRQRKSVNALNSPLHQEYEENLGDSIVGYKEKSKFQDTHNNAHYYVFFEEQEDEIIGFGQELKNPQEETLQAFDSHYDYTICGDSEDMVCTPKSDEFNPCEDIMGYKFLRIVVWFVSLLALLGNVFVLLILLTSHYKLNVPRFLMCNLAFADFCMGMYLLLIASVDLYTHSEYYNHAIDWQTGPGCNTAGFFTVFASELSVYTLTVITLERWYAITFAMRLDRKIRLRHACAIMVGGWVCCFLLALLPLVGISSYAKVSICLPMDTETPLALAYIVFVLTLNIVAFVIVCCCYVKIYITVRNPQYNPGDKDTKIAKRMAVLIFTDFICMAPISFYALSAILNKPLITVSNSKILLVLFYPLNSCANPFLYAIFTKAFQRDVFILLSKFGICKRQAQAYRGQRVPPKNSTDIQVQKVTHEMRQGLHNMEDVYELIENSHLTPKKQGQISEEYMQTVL
Sequence of UniProt P05771 (whole entry, looked up): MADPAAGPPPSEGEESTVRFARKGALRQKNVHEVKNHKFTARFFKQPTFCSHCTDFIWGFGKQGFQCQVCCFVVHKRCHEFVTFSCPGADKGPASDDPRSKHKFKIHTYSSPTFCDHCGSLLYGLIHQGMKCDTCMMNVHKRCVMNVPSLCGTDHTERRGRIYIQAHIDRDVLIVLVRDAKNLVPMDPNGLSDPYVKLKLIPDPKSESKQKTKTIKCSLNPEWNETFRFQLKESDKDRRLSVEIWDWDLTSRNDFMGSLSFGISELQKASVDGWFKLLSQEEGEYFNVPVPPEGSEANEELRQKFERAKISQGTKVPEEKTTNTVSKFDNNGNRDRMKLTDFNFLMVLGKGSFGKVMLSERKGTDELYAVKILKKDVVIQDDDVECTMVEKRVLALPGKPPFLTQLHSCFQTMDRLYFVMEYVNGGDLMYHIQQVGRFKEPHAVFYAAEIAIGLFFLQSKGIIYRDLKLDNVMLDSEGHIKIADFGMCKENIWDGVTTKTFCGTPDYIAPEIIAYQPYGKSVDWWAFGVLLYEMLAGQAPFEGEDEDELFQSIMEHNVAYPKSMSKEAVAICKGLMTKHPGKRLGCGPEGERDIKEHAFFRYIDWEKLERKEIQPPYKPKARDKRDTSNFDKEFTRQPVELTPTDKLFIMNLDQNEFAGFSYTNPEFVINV
Sequence of UniProt P46093 (whole entry, looked up): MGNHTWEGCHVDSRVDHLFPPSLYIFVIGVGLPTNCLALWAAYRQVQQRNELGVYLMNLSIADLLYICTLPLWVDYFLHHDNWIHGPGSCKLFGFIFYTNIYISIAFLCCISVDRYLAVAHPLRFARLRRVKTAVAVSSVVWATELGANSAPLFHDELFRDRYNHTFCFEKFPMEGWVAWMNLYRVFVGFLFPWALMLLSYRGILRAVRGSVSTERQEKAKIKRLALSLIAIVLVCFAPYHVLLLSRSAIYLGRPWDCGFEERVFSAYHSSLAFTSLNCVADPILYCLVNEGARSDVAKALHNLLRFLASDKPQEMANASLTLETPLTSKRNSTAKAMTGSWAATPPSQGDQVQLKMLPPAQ
Sequence of UniProt P42336 (whole entry, unmodified, looked up): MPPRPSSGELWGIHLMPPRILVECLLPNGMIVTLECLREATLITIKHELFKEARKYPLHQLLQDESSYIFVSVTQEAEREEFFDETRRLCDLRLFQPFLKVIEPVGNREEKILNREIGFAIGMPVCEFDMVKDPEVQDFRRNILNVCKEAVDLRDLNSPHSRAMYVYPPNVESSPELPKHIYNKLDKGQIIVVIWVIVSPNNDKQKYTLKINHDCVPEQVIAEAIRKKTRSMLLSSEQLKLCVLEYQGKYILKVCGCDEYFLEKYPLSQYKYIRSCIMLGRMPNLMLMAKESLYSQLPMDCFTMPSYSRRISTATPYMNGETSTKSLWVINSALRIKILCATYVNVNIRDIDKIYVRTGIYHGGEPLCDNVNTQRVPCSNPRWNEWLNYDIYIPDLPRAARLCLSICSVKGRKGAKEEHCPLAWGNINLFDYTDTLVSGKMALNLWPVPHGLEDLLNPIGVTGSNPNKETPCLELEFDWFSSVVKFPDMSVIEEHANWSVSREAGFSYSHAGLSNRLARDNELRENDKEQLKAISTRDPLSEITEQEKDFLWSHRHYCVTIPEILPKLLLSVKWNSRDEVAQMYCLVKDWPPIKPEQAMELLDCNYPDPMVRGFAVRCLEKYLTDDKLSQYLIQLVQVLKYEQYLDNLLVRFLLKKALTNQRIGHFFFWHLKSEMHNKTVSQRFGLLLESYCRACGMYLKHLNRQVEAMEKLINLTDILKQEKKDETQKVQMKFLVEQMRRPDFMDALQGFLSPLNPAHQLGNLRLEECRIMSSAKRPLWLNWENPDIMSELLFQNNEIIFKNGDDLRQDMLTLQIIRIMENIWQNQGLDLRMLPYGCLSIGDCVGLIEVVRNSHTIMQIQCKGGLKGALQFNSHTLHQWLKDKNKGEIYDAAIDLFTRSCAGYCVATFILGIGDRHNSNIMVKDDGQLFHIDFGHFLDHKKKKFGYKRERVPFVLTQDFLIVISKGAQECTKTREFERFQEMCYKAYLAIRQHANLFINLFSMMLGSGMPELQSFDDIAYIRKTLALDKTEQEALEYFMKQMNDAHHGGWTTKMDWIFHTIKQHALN
Sequence of UniProt O96017 (whole entry, looked up): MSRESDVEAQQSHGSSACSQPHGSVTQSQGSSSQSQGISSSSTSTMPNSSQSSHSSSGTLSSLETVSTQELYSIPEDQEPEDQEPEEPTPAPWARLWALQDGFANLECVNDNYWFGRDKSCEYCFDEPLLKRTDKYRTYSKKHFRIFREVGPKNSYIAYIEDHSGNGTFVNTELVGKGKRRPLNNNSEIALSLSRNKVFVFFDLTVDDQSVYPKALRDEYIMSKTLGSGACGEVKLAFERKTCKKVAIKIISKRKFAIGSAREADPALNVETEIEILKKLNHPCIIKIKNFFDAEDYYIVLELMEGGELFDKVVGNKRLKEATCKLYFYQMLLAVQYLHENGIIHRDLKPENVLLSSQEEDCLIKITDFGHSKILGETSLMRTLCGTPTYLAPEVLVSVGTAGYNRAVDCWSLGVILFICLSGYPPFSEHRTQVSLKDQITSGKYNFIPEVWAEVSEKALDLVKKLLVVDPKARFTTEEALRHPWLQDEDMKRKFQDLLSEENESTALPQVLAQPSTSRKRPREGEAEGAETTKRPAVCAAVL
Sequence of UniProt P15735 (whole entry, looked up): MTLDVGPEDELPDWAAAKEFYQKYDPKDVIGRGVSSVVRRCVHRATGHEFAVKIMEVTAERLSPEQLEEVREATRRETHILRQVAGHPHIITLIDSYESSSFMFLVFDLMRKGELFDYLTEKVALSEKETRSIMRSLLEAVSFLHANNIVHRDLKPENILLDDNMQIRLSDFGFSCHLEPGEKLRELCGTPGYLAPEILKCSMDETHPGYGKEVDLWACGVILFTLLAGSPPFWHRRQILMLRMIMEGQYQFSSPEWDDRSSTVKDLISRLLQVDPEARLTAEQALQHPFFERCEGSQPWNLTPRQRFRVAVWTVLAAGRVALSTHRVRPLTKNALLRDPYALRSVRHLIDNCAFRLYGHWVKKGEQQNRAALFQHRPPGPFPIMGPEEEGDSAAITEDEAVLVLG
Sequence of UniProt Q96PN8 (whole entry, looked up): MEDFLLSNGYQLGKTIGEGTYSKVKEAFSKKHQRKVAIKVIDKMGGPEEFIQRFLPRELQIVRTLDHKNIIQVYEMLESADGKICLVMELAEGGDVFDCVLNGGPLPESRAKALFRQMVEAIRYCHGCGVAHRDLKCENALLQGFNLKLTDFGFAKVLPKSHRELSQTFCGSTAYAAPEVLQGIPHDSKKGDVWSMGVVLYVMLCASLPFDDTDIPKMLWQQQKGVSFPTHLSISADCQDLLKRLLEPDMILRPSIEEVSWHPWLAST

Set 1
Compound: Cc1nc(C2CCN(C(=O)c3ccc(OC(F)(F)F)cc3N)CC2)c2ncc(N3CCN(C)CC3)cc2n1
Effect on: cell-free assay
Technique: competition with immobilised ligand
Concentration: 1 µM
| target | remaining binding |
| --- | --- |
| MST1R (Homo sapiens, UniProt Q04912) | 82% |
| PIK3CA (Homo sapiens, UniProt P42336, C420R) | 86% |
| TIE1 (Homo sapiens, UniProt P35590) | 100% |
| OXSR1 (Homo sapiens, UniProt O95747) | 49% |
| MAP3K9 (Homo sapiens, UniProt P80192) | 97% |
| MAP2K3 (Homo sapiens, UniProt P46734) | 98% |
| STK33 (Homo sapiens, UniProt Q9BYT3) | 100% |
| NEK1 (Homo sapiens, UniProt Q96PY6) | 97% |
| Myosin-IIIa (MYO3A, Homo sapiens, UniProt Q8NEV4) | 100% |
| MAPK14 (Homo sapiens, UniProt Q16539) | 100% |
| ULK3 (Homo sapiens, UniProt Q6PHR2) | 46% |
| LCK (Homo sapiens, UniProt P06239) | 100% |
| TSSK3 (Homo sapiens, UniProt Q96PN8) | 100% |
| CLK3 (Homo sapiens, UniProt P49761) | 94% |
| IRAK4 (Homo sapiens, UniProt Q9NWZ3) | 90% |
| NEK9 (Homo sapiens, UniProt Q8TD19) | 94% |
| MAP3K10 (Homo sapiens, UniProt Q02779) | 100% |
| PHKG2 (Homo sapiens, UniProt P15735) | 100% |

Set 2
SMILES: CCc1[nH]c(-c2ccc(OC)cc2)nc1-c1ccncc1
Effect on: enzyme activity
Mode: inhibitor
Concentration: 0.5 µM
Relative to: control
| target | remaining activity [%] |
| --- | --- |
| CAMK2D (Homo sapiens, UniProt Q13557) | 96.4 |
| CAMKK2 (Homo sapiens, UniProt Q96RR4) | 109 |
| CHEK2 (Homo sapiens, UniProt O96017) | 102 |
| PRKACA (Homo sapiens, UniProt P17612) | 100 |
| TGFBR2 (Homo sapiens, UniProt P37173) | 140 |
| GRK3 (Homo sapiens, UniProt P35626) | 98.4 |
| NEK2 (Homo sapiens, UniProt P51955) | 100 |
| STK11 (Homo sapiens, UniProt Q15831) | 89.5 |
| Tyrosine-protein kinase Lyn, isoform B (LYN, Homo sapiens, UniProt P07948) | 101 |
| OXSR1 (Homo sapiens, UniProt O95747) | 97.7 |
| DAPK2 (Homo sapiens, UniProt Q9UIK4) | 104 |
| IKBKE (Homo sapiens, UniProt Q14164) | 99.8 |
| Cyclin-dependent kinase 4, with cyclin D1 (CDK4, Homo sapiens, UniProt P11802) | 107 |
| MAPK9 (Homo sapiens, UniProt P45984) | 101 |
| cGMP-dependent protein kinase 1, isoform beta (PRKG1, Homo sapiens, UniProt Q13976) | 91.2 |
| TGFBR1 (Homo sapiens, UniProt P36897) | 98.2 |
| PRKCA (Homo sapiens, UniProt P17252) | 107 |
| Cyclin-dependent kinase 5, with p25 (CDK5, Homo sapiens, UniProt Q00535) | 95.9 |
| IKBKB (Homo sapiens, UniProt O14920) | 106 |
| MAP3K3 (Homo sapiens, UniProt Q99759) | 99 |
| DAPK1 (Homo sapiens, UniProt P53355) | 97.4 |
| STK39 (Homo sapiens, UniProt Q9UEW8) | 94.2 |
| STK10 (Homo sapiens, UniProt O94804) | 96.8 |
| Protein kinase C beta type, isoform beta-I (PRKCB, Homo sapiens, UniProt P05771) | 104 |

Set 3
Compound: CCN(c1nc(N)c(C(=O)N=C(N)N)nc1Cl)C(C)C
Effect on: β-arrestin recruitment
Mode: agonist
Technique: PRESTO-Tango
Concentration: 10 µM
Relative to: untreated
| target | fold over basal |
| --- | --- |
| PTGER1 (Homo sapiens, UniProt P34995) | 0.91 |
| TSHR (Homo sapiens, UniProt P16473) | 1.07 fold |
| PTGER4 (Homo sapiens, UniProt P35408) | 0.73 |
| MCHR1 (Homo sapiens, UniProt Q99705) | 1.01 |
| GRM5 (Homo sapiens, UniProt P41594) | 1.21 fold |
| GPR52 (Homo sapiens, UniProt Q9Y2T5) | 0.92 |
| PTGDR2 (Homo sapiens, UniProt Q9Y5Y4) | 0.98 |
| PTGIR (Homo sapiens, UniProt P43119) | 0.72 |
| MC4R (Homo sapiens, UniProt P32245) | 1.18 |
| Trace amine-associated receptor 2 (TAAR2, Homo sapiens, UniProt Q9P1P5) | 0.68 fold |
| CCR10 (Homo sapiens, UniProt P46092) | 0.86 |
| Probable G-protein coupled receptor 19 (GPR19, Homo sapiens, UniProt Q15760) | 1.46 |
| GPR4 (Homo sapiens, UniProt P46093) | 1.42 |
| HTR4 (Homo sapiens, UniProt Q13639) | 1.26 |

Set 4
Target: Diamine acetyltransferase 1 (Homo sapiens, UniProt P21673)
Mode: inhibitor
Concentration: 10 µM
Relative to: control
Residues (P21673 1-171): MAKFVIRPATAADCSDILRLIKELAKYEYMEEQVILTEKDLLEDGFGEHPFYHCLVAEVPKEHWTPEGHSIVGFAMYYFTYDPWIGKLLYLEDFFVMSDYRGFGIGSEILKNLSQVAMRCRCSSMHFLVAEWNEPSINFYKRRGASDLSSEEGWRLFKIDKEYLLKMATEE
| Structure (SMILES) | remaining activity [%] |
| --- | --- |
| CCCCCCCCCCCCCC(=O)OC(C)C | 97.2 |
| COc1cc2c(cc1OC)[C@@H](Cc1ccc(Oc3cc(C[C@@H]4c5cc(OC)c(OC)cc5CCN4C)ccc3O)cc1)N(C)CC2 | 97 |
| OC[C@H](O)C(O)[C@@H](O)CO | 99.2 |
| O=C(/C=C/c1ccc(O)c(O)c1)O[C@@H]1CC(C(=O)O)=C[C@@H](O)[C@H]1O | 87.6 |
| NC(=O)c1cccnc1 | 115 |
| COc1cc(O)c(C(C)=O)c(OC)c1 | 80.2 |
| CCCCCCCC/C=C/C(=O)O | 73.8 |
| Cc1ncc(CO)c(CO)c1O | 101 |
| Nc1nc2c(ncn2[C@@H]2O[C@H](CO)[C@@H](O)[C@H]2O)c(=O)[nH]1 | 92.3 |
| OC[C@@H](O)[C@@H](O)[C@H](O)[C@H](O)CO | 89.9 |
| O=C1/C(=C/c2ccc(O)c(O)c2)Oc2cc(O)ccc21 | 105 |
| CCCCCCCC/C=C\CCCCCCCC(=O)OC | 97.2 |
| O=C(O)C1=CO[C@@H](O[C@@H]2O[C@H](CO)[C@@H](O)[C@H](O)[C@H]2O)[C@@H]2C(CO)=CC[C@H]12 | 93.5 |
| C[n+]1cc2c3c(ccc2c2ccc4cc5c(cc4c21)OCO5)OCO3 | 71.5 |

For quick reference, copied from above (set 4):
| Structure (SMILES) | remaining activity [%] |
| --- | --- |
| NC(=O)c1cccnc1 | 115 |
| COc1cc(O)c(C(C)=O)c(OC)c1 | 80.2 |
| CCCCCCCC/C=C/C(=O)O | 73.8 |
| Cc1ncc(CO)c(CO)c1O | 101 |
| Nc1nc2c(ncn2[C@@H]2O[C@H](CO)[C@@H](O)[C@H]2O)c(=O)[nH]1 | 92.3 |
